Measurements collected from several papers.
Every numbered part comes from another study and shows a few of its results, in no order.

Study 1
Target: RING finger protein unkempt homolog, zinc fingers 1-6, GST-SBP tag (UNK, Homo sapiens, UniProt Q9C0B0, residues 30-357)
UniProt Q9C0B0, sequence (30-357, looked up): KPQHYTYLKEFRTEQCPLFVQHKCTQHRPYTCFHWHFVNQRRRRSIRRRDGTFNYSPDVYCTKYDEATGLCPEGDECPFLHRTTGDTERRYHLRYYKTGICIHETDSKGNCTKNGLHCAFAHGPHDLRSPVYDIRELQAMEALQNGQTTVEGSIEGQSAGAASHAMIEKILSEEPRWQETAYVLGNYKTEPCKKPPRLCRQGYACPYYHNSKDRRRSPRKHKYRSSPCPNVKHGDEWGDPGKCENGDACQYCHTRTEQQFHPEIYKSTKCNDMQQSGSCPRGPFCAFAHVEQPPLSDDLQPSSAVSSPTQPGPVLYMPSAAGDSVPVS
Method: RNA Bind-n-Seq
Form: RNA
Matrix: in vitro
Tested at: not given
Notes: RNA with constant flanks, ends assumed
Reference: input RNA pool
Reading: higher = stronger binding
Constant ends, left off below: GGGAGUUCUACAGUCCGACGAUC … CAACAGAGGAUUGAGCAUCA
With `AGAUUGAUUUUCUUAGACUCCAUUAAGUCCAAAUCCAAAGACUCUGUGUGGGAAAAAGAAACCGAAAUACUUAUAGAGGAAAAUGAGGACCUCAAACAACAAUGUAUUCAGCUAAAUGAA` the bound/input enrichment was 0.168 ratio.
For `CCAGGCCCAGCCAAGUCAGAGUUUGACUUAGCAACUAUUUCUAGAAUUUUUUCAGCUCUUUCCGUGACAGCUUUUAAACCAUCAAUCUUUUUGUUUUGUUUUUUUGUUUUUCAAGACACG`, the bound/input enrichment was 11 ratio.
`AAGACAAAACUGGACACUCUAGCUACUGGUCAUCUUUUCCAGGAAGUGAGAUGCAUGAAACCCGUGCAGCAUCCUAACAUCGUCCGCCUUUAUGAAGUUAUUGACACCCAGACCAAACUA` has a bound/input enrichment of 0.162 ratio.
The bound/input enrichment of `UAUAGUGGGGUUGGUAAUUCAUCAGUUUCUGGCCAUGGUAUUCUCCCAAGCUAUCAGGAACCCGUGGAAGACCGUUUCAGGAAACCUCAUGCUUUUGCUGUGCCUGGACAGUCUUAUCAG` is reported as 0.296 ratio.
`UUUGAAGAAGGUGAAGAAACAAUUACAGCCUUUGUAGAACCUUUUGUAAUUUUACUCAUAUCCGCCGCCAAUGCAAUUGUGGGUGUAUGGCAGGAAAGAAAUGCUGAAAAUGCCAUCGAA` has a bound/input enrichment of 0.305 ratio.
The bound/input enrichment of `UACGGCAAAGGCAAGAGUAACAGCAGCGCCGUCCCGUCCGACAGCCAGGCCCGGGAGAAGUCCGCACUCUACGUAUAUGAAUAUCUGCUCCAUGUAGGAGCUCAGAAAUCAGCUCAAACA` is reported as 0.115 ratio.
With `UGUGGAAUCAAGCACCUUCAUUCUGCUGGAAUUAUUCAUCGGGACUUAAAGCCCAGUAAUACCGCCGUAAAAUCUGAUUGCACUUUGAAGAUUCUUGACUUCGGUCUGGCCAGGACUGCA` the bound/input enrichment was 0.235 ratio.
`CUUGGUGUUCAUAUGUAUCUUUUAAUUUUUUUGAAAUUUGUUCAAGCUGUCAUUCCAACAACCGAAUAUGACUACACAAGACACUUCACAAUGUAGUGGAGAGGCUAUAGAGUCUAUCCU` has a bound/input enrichment of 1.25 ratio.
`UUAUAUCUUUCUGUCAUUCGAAAGAUACCAGCCUUGACUGAAAAUGACCCUGAAACUUGGACCGUUUGUAAUUUUUCUGUGGAUCAUGACAGUGCUCCUCUAAACAACCGAUGUGUCCGU` gave a bound/input enrichment of 0.154 ratio.
The bound/input enrichment of `AGUCAGCACAGCCGCGGCGGCUGCAGCAGCGAGAGUUCUAGGGUUGCCCUUAAUUGCUGCCGUAACCUGGGUCCGGGGCCUCGGUGGUGCUCCGAUGUCCCUCACCCACCCCUGAAGAUC` is reported as 0.132 ratio.
`UUUGUAAAUUUCUCCGAGCAGAAAGAAAAGUUAAUAAAGCGUCAAGAAGAGUUAGACCGGGGUUACAAAUCAAUCAUGGAACUGAUGAAUGUACUUGAACUUCGGAAAUAUGAAGCUAUU` gave a bound/input enrichment of 0.296 ratio.

Study 2
Target: Interferon regulatory factor 5, full length, phosphomimetic (IRF5, Homo sapiens, UniProt Q13568-2, residues 1-514, S451D/S453D/S456D/S462D)
Method: protein-binding microarray
Form: double-stranded DNA, one strand shown
Matrix: in vitro
Tested at: 940 nM top
Notes: 60-bp whole probe
Added: salmon DNA 0.4 mg/ml
Reference: random background probes
Reading: higher = stronger binding
Constant ends, left off below: GCCTAGCAC … GTCTTGATTCGCTTGACGCTGCTG
`TTAGGGCTCCTTCTCCTTTAGTGCTAG` — result for “fitted relative affinity”: -0.0702 z-score.
`TCATGTCAACTTTCTCTGACTGTGCTA`: “fitted relative affinity” 0.678 z-score.
`GACGGTTTCCTATCCCTGACGTGCTAG`: “fitted relative affinity” 1.48 z-score.
For `GACGATATCGGGACTAGAGACGTGCTA`, “fitted relative affinity” read -0.313 z-score.
`TCAAAAATGATGTTTTAGACTGTGCTA`: “fitted relative affinity” -0.487 z-score.
Under “fitted relative affinity”, `TTATATTTCAGTCTCGATTAGTGCTAG` is recorded as 4.6 z-score.
`TTAGGTATCGGGACTGGGTGAGTGCTA`: “fitted relative affinity” 3.82 z-score.
`CTGCTGATCGGTTGGGGTGGGTGCTAG`: “fitted relative affinity” -0.0755 z-score.
`TCCTAATTCTCTTTTCACTTGTGCTAG` — result for “fitted relative affinity”: 2.23 z-score.
Under “fitted relative affinity”, `TTAGATATCGGGTATTGATTAGTGCTA` is recorded as 0.566 z-score.
`TTATGTATCCTTCTCCTTTAGTGCTAG`: “fitted relative affinity” 0.858 z-score.
`TATTTTTTTGTAATCGAAATGTGCTAG` — result for “fitted relative affinity”: 0.344 z-score.
Under “fitted relative affinity”, `TGAGATCTCAGACTGGATTAGTGCTAG` is recorded as -0.203 z-score.
`TTAGGTTTCCTTTCCCTGTAGTGCTAG`: “fitted relative affinity” 2.29 z-score.
`TCATAGTTTCTTTTCTTACTGTGCTAG`: “fitted relative affinity” 3.25 z-score.
For `TTAGAGCTCCTCCTTCTCTAAGTGCTA`, “fitted relative affinity” read 0.142 z-score.
For `TCACTTCTCCTCTAGGTTACTGTGCTA`, “fitted relative affinity” read 1.04 z-score.
`TCAGTTCTCAGCTTGGGACTGTGCTAG` — result for “fitted relative affinity”: 0.502 z-score.
`TGTGGTGCAGCTCCCTCCTCGTGCTAG` — result for “fitted relative affinity”: -0.533 z-score.
`GACGATTTCAGTTCCGAAACGTGCTAG`: “fitted relative affinity” 0.874 z-score.
Under “fitted relative affinity”, `ATAGGTATCCTTTTCCTTTAGTGCTAG` is recorded as 0.859 z-score.
`TTAGGTTACGGGACTGGGTTAGTGCTA`: “fitted relative affinity” 0.192 z-score.
`TTAGGTCTCGTACTGGGTTAGTGCTAG` — result for “fitted relative affinity”: 0.803 z-score.
Under “fitted relative affinity”, `AACTGTCTGCCTTTCAATCCGTGCTAG` is recorded as 0.348 z-score.

Study 3
Target: RNA binding protein fox-1 homolog 2, RRM domain, GST-SBP tag (RBFOX2, Homo sapiens, UniProt O43251-10, residues 100-194)
Method: RNA Bind-n-Seq
Form: RNA
Matrix: in vitro
Tested at: 365 nM
Notes: natural RNA segment, single round, ends assumed
Reference: no-protein control
Reading: higher = stronger binding
Constant ends, left off below: GGGAGUUCUACAGUCCGACGAUC … UGGAAUUCUCGGGUGCCAA
Target sequence (chain): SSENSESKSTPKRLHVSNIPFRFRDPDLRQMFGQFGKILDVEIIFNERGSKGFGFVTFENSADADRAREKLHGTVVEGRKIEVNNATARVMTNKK
`UGAGGGACCAUCUACCCCCCACCUAUCCUCGAGCACCAGGCUUGUGAGAUGAGACAGAGGGUGGAGGAAGCCAUGAGGGAUGGUCCCCACGGAUCCUGCCGAGAGCCACG` — result for “RBNS enrichment (R)”: 4.81.
`AUAAACCACCGUCGUGAGGCAUUUACCUGUUGGAUGGAAGGUAGACAGCAACAAGAUUUUAAUCACCUGGUCACCAGACCCUCACGGCCCAUAUCCAAUUCGAAUUUCAG`: “RBNS enrichment (R)” 0.393.
Under “RBNS enrichment (R)”, `UCAGUGAUUGUAAGUUUGCCUGAUACUCAGCACACAUCUAUGUUUUCCUAUGAGCAGUUCAACCUGUGCCUGCAAAGCCAAAGGGGCUGAGGUACAUUAGAGCAUGGAGG` is recorded as 1.08.
`UAGUUGGCGAGGCACCUGCACAUUUCUGAGUGUCCAUGUUUCCUUUGAGACAUCCCCAUUUCUAUGUAGGUGGGAUUUUGCUUUCAUUUCUGAUUUAAAUUAGCUCCUUG`: “RBNS enrichment (R)” 0.394.
`GGAAAGGGAUUUUAUGGUUGGGGGUUAGUCCAACAAGAGGGACAGUGUUAAUGCUUCUGAAGCAUCAGGAAGGUUGAAAGCCACUGCUCUAGAGCCAAGUGAGUGCAUGU` — result for “RBNS enrichment (R)”: 12.5.
`UCUCUCCUUUAAGCUCAAGUUUUGAACUCUCUGCGGUUUUCCACCCCUGCCUUCUCAGCCACAUGCUUUUGGCCUUAAACGCUCAGUCUUGUGGAGUUCAACUCUGUCAA` — result for “RBNS enrichment (R)”: 0.648.
`CUUAGGAAGCCCCUUCGCUUCAGUUGCUCGCUUCUGGGUGUGCUCCCUUCGAAGGCCCAGAUAAGACAGGGAACACUUGUGAGCACACAGAGCAGCAUCUGAUGCCCUGU` — result for “RBNS enrichment (R)”: 0.216.
`CACAGAUGGUCGUCACGUGGGACCUGGAAUUGGAGACACUGCAGCGAGCAGCUAGAAAGCCUCUUGUGUUCCUGGCACCUCCUGGCACUUAUCUUGGGAAUGCCUGCAUG` — result for “RBNS enrichment (R)”: 3.91.
For `CUGUUAAUUUUAUAAGCUAGAAAUCACUAUAAUGAAUUAUGCCAAUUCUGAAAAAUUUUACACAUGUAUGGCAACACCUGAUCUAUCGGUUAUCCAACGCUUCAUUGUAC`, “RBNS enrichment (R)” read 0.604.
`CUAUGGCUAUCCGAAUUCUCUGAAAAAAUAAUAAAAGUCCCCUCUAUUAUAUGAGCCUGUACAGAAAUAUGGCUAUCAGCUGCUUUUUUUUUGCCGGGGGAGUGGGGACA` — result for “RBNS enrichment (R)”: 0.596.
For `AGCAGAGCUCCUGGGAAAAGAGACUGGAAGUGGUUCAGGAUAAAGAGAUCCAUGGUGGGCAGGGCUGUUAGGUCACAGAGCUCUAGAAGCAGCUGGACUUGAACCCACAA`, “RBNS enrichment (R)” read 0.83.
Under “RBNS enrichment (R)”, `UGGACAUUCACGCUCAGUAGCUUAAGGGAAUAUGCGUUGUCUACAAUGGUGACUGAUCUCGAAUCAGGUCUUUUCCUGCAAGGACUAUGGAGUUCCAUUCUUGACAUCUA` is recorded as 0.373.

Study 4
Target: Histone acetyltransferase KAT6A, winged helix 1, GST fusion (KAT6A, Homo sapiens, UniProt Q92794, residues 1-85)
Method: protein binding microarray
Form: double-stranded DNA, one strand shown
Matrix: in vitro
Tested at: not given
Notes: 8-mer, flanks averaged, mean of 2 arrays, mostly near background
Reference: not given
Reading: higher = stronger binding
Residues (chain): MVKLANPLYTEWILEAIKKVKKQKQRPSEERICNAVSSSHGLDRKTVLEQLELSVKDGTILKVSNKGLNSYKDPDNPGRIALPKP
`AATACCGG` gave an E-score of 0.13.
With `CCGAATCA` the E-score was -0.0362.
`AAGAGATG` has an E-score of -0.285.
`CTCGCACA` has an E-score of 0.0954.
`CGCTAGCC` has an E-score of 0.281.
With `GACCGGCA` the E-score was 0.279.
For `AATTCTGG`, the E-score was -0.139.
`CATCACCA` gave an E-score of -0.111.
The E-score of `CTTGCCCA` is reported as -0.275.
The E-score of `ATTGTTAG` is reported as -0.0342.
With `GCACCGTA` the E-score was 0.292.
`ATTTATCC` has an E-score of -0.111.
With `CACGGGCA` the E-score was 0.238.
`GCTATATA` gave an E-score of 0.0191.
`GACAAACC` has an E-score of -0.0488.
`AGGCTTTA` gave an E-score of -0.143.
For `CTTAGAAG`, the E-score was -0.215.
For `TCGTCGCA`, the E-score was 0.0247.

Excerpt of the above (study 2):
`TTAGGGCTCCTTCTCCTTTAGTGCTAG` — result for “fitted relative affinity”: -0.0702 z-score.
Under “fitted relative affinity”, `TGAGATCTCAGACTGGATTAGTGCTAG` is recorded as -0.203 z-score.
For `TTAGAGCTCCTCCTTCTCTAAGTGCTA`, “fitted relative affinity” read 0.142 z-score.
`TTAGGTTTCCTTTCCCTGTAGTGCTAG`: “fitted relative affinity” 2.29 z-score.
`TATTTTTTTGTAATCGAAATGTGCTAG` — result for “fitted relative affinity”: 0.344 z-score.
Under “fitted relative affinity”, `TTAGATATCGGGTATTGATTAGTGCTA` is recorded as 0.566 z-score.
For `TCACTTCTCCTCTAGGTTACTGTGCTA`, “fitted relative affinity” read 1.04 z-score.
`TCAAAAATGATGTTTTAGACTGTGCTA`: “fitted relative affinity” -0.487 z-score.
